Measured values from different studies.
± gives the spread as reported.
Neuronal acetylcholine receptor; alpha3/beta4: Neuronal acetylcholine receptor; alpha3/beta4 (Rattus norvegicus, UniProt P04757+P12392)
Chain of UniProt P12392 (whole entry, looked up): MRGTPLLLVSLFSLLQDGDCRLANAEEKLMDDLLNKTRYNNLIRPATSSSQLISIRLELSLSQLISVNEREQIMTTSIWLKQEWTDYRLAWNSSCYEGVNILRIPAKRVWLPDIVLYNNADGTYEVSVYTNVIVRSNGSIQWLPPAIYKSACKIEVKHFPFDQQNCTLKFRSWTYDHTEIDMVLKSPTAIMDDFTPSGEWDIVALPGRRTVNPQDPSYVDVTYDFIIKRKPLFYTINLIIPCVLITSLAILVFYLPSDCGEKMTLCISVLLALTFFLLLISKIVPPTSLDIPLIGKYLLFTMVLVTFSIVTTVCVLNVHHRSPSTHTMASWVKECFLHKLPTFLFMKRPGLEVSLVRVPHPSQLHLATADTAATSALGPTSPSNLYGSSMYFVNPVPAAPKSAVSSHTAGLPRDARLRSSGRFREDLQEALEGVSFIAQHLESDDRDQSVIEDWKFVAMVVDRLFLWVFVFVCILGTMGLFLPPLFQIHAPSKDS
Chain of UniProt P04757 (whole entry, looked up): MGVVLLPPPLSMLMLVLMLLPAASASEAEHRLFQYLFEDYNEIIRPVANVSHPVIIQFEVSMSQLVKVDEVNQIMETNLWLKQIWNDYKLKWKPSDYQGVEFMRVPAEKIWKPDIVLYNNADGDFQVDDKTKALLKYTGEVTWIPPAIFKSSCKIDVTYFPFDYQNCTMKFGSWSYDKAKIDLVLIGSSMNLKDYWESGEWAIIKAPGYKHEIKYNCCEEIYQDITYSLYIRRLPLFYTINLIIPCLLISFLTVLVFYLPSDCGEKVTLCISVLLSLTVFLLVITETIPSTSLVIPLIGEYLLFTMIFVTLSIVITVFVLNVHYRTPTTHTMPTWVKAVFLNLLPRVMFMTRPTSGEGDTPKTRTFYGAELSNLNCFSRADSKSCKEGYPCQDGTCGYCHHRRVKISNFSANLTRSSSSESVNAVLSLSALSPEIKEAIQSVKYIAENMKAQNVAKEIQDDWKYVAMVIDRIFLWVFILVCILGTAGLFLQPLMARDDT
Chain of UniProt Q9JLB5 (whole entry, looked up): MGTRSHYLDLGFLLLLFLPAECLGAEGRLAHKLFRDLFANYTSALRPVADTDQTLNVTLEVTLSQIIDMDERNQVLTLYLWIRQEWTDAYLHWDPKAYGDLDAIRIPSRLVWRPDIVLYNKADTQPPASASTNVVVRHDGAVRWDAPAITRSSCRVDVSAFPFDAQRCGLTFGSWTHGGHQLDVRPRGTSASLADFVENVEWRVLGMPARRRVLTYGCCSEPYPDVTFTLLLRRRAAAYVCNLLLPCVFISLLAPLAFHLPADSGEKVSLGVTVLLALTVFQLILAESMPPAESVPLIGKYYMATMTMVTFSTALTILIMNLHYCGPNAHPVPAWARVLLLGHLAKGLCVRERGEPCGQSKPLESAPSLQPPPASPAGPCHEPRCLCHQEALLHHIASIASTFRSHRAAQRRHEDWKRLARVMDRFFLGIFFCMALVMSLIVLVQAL
Chain of UniProt P36544 (whole entry, looked up): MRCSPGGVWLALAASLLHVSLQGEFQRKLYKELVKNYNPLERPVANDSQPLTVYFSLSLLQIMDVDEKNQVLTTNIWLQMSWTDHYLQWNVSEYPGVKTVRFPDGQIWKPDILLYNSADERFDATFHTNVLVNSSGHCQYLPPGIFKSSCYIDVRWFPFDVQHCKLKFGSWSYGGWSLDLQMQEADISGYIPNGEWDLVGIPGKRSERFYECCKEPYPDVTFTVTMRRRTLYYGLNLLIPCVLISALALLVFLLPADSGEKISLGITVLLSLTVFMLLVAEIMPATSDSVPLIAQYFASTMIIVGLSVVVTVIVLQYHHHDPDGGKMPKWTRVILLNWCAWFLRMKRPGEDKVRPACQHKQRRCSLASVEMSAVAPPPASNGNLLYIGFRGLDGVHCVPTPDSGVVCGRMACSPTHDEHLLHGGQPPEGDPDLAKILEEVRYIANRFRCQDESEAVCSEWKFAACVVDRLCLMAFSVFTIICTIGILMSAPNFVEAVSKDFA
Chain of UniProt P43143 (whole entry, looked up): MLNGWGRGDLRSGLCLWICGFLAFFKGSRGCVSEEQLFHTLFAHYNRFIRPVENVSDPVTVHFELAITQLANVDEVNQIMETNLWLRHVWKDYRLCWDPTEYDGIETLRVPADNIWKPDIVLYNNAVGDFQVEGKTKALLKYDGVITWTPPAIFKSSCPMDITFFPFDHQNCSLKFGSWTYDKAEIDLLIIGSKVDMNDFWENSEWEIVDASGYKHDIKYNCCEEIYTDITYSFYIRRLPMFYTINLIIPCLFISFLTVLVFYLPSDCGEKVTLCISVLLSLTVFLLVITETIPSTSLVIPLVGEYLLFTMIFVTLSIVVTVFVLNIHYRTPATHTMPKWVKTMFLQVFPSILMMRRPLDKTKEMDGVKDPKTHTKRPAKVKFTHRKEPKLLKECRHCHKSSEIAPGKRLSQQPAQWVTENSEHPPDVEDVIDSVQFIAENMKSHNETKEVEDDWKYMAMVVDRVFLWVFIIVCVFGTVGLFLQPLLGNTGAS
Chain of UniProt P43144 (whole entry, looked up): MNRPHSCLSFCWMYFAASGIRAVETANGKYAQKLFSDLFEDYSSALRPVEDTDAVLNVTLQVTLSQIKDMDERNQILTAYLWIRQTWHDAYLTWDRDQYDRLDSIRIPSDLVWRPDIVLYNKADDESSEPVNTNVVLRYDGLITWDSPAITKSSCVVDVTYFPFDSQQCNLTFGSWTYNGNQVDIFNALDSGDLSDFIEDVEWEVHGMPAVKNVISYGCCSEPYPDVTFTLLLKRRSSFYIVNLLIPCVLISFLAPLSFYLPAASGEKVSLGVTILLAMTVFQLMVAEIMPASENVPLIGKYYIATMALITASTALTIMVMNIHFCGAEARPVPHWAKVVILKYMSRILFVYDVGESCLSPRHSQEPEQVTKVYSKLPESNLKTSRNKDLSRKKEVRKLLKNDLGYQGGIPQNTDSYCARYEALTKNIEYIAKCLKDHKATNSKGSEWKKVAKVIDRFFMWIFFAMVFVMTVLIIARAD

SMILES	target	observed	action	cell line	species	measurement	result
CC[C@H](C)[C@@H]1NC(=O)[C@@H]2CCCN2C(=O)[C@H](C)NC(=O)[C@H](CCSC)NC(=O)[C@H](C)NC(=O)[C@H](CO)NC(=O)[C@@H]2CSSC[C@H](NC(=O)CN)C(=O)N[C@@H](CSSC[C@@H](C(N)=O)NC1=O)C(=O)N[C@@H](CO)C(=O)N[C@@H](Cc1c[nH]cn1)C(=O)N1CCC[C@H]1C(=O)N[C@@H](C(C)C)C(=O)N2	Neuronal acetylcholine receptor; alpha3/beta4	receptor current	antagonist	–	rat	Hill slope	1.12
C[C@H](NC(=O)c1cccc2nc(-c3cncc4ccccc34)n(CCCC(=O)NCCOCCNC(=O)c3ccc(C4=c5cc6c(cc5Oc5cc7c(cc54)C(CS(=O)(=O)O)=CC(C)(C)N7C)=[N+](C)C(C)(C)C=C6CS(=O)(=O)[O-])c(C(=O)O)c3)c12)c1ccc2ccccc2c1	Spike glycoprotein, receptor-binding domain (Severe acute respiratory syndrome coronavirus 2, UniProt P0DTC2)	binding	–	–	–	Kd	> 1.5 µM
CC[C@H](C)[C@@H]1NC(=O)[C@H](CC(=O)O)NC(=O)[C@@H]2CCCN2C(=O)[C@H](CC(N)=O)NC(=O)[C@H](CCC(N)=O)NC(=O)[C@H](CC(C)C)NC(=O)[C@H]([C@@H](C)CC)NC(=O)[C@@H]2CSSC[C@H](NC(=O)[C@@H](N)CC(=O)O)C(=O)N[C@@H](CSSC[C@@H](C(N)=O)NC1=O)C(=O)N[C@@H](CO)C(=O)N[C@@H](C)C(=O)N1CCC[C@H]1C(=O)N1CCC[C@H]1C(=O)N2	Nicotinic acetylcholine receptor alpha9/alpha10 (Rattus norvegicus, UniProt P43144+Q9JLB5)	–	–	rat cells	–	IC50	> 10 µM
CCC[C@@H]1NC(=O)[C@H](CC)NC(=O)[C@H](Cc2ccccc2)NC(=O)[C@@H]2CSSC[C@H](NC(=O)CN)C(=O)N[C@@H](CSSC[C@@H](C(N)=O)NC(=O)[C@H](Cc3ccc(O)cc3)NC1=O)C(=O)N[C@@H](CO)C(=O)N[C@@H](Cc1c[nH]cn1)C(=O)N1CCC[C@H]1C(=O)N[C@@H](CC)C(=O)N2	Neuronal acetylcholine receptor; alpha3/beta4	–	–	–	–	Ki	0.27 ± 0.011 µM
CC1(C)SSC[C@@H](C(N)=O)NC(=O)[C@H](Cc2c[nH]c3ccccc23)NC(=O)[C@H](CCCNC(=N)N)NC(=O)[C@H](CCCNC(=N)N)NC(=O)[C@H](Cc2c[nH]c3ccccc23)NC(=O)[C@H](Cc2c[nH]c3ccccc23)NC(=O)[C@H](CCCNC(=N)N)NC(=O)[C@H]1NC(=O)CN	CHRNA7 (Homo sapiens, UniProt P36544)	–	–	human cells	–	IC50	1.37 ± 0.0728 µM
CCC[C@@H]1NC(=O)[C@H](CC)NC(=O)[C@H](Cc2ccccc2)NC(=O)[C@@H]2CSSC[C@H](NC(=O)CN)C(=O)N[C@@H](CSSC[C@@H](C(N)=O)NC(=O)[C@H](Cc3ccc(O)cc3)NC1=O)C(=O)N[C@@H](CO)C(=O)N[C@@H](Cc1c[nH]cn1)C(=O)N1CCC[C@H]1C(=O)N1CCC[C@H]1C(=O)N2	Neuronal acetylcholine receptor; alpha3/beta4	–	–	–	–	Ki	0.794 ± 0.065 µM
O=C(N/N=C/c1cc(Br)cc(Br)c1O)c1cccnc1	tpx (Yersinia pseudotuberculosis, UniProt Q66A71)	–	–	–	–	Kd	71 µM
CC[C@H](C)[C@@H]1NC(=O)[C@@H]2CCCN2C(=O)[C@H](CO)NC(=O)[C@H](CCSC)NC(=O)[C@H](C)NC(=O)[C@H](CO)NC(=O)[C@@H]2CSSC[C@H](NC(=O)CN)C(=O)N[C@@H](CSSC[C@@H](C(N)=O)NC1=O)C(=O)N[C@@H](C)C(=O)N[C@@H](Cc1c[nH]cn1)C(=O)N1CCC[C@H]1C(=O)N[C@@H](C(C)C)C(=O)N2	Nicotinic acetylcholine receptor alpha6/alpha3/beta4 (Rattus norvegicus, UniProt P04757+P12392+P43143)	receptor current	antagonist	–	rat	Hill slope	0.87
